{"data": "Measurements from different studies", "note": "Protocols differ between the studies behind these lines. ± gives the spread as reported."}
{"Structure (SMILES)": "CCCCCCCCCCC(=O)O[C@H]1CC[C@H]2[C@@H]3CCC4=CC(=O)CC[C@]4(C)[C@H]3CC[C@]12C", "test system": "human blood", "conditions": "600 ng/mL, 30 min, 4 °C, NaF 5 mg/mL, K2 oxalate 4 mg/mL", "scale": "relative to: no compound added", "quantity": "testosterone change", "value": "11.9%"}
{"Structure (SMILES)": "Cc1ncc2n1-c1ccc(Cl)cc1C(c1ccccc1F)=NC2", "test system": "healthy men, plasma", "conditions": "oral, 7.5 mg, day 19, LS mean, added: 7 days post amenamevir", "quantity": "AUC(0-inf)", "value": "124 ng·h/mL"}
{"Structure (SMILES)": "CN[C@@](C)(C[18F])C(=O)O", "tested on": "SK-OV-3 tumour model", "test system": "host not given, bone", "conditions": "2 h, tumour-bearing", "quantity": "tracer uptake", "value": "2 %ID/g"}
{"Structure (SMILES)": "Cc1ncc2n1-c1ccc(Cl)cc1C(c1ccccc1F)=NC2", "test system": "human CYP3A5*1/*3 and *1/*6, serum", "conditions": "oral, median, added: ketoconazole 200 mg", "quantity": "Tmax", "value": "1 h"}
{"Structure (SMILES)": "COc1ccsc1CNCC[C@@]1(c2ccccn2)CCOC2(CCCC2)C1", "test system": "healthy human, normal renal function, plasma", "conditions": "intravenous, 1 mg single dose, geometric mean", "quantity": "volume of distribution (Vz)", "value": "187 L"}
{"Structure (SMILES)": "COc1ccc2c(c1)[C@]13CCCC[C@@H]1[C@H](C2)N(C)CC3", "test system": "Wistar rat, both sexes, plasma", "conditions": "oral, 5 mg/kg, 2 h after pretreatment, added: single TCE 400 mg/kg", "quantity": "Tmax", "value": "0.49 ± 0.36 h"}
{"Structure (SMILES)": "CP(=O)(O)CCC(N)C(=O)O (stereo not drawn)", "tested on": "Lolium perenne", "conditions": "500 g/ha, 13 days, LOLPE, post-emergence spray", "scale": "relative to: untreated (0%), complete kill (100%)", "quantity": "herbicidal activity", "value": "70%"}
{"Structure (SMILES)": "CNC(C)Cc1ccc2c(c1)OCO2 (racemic)", "test": "Drug Effects Questionnaire, measured: Want More", "test system": "human", "conditions": "oral, 0.75 mg/kg, mean over session, unit not given", "scale": "relative to: pre-dose baseline", "quantity": "subjective drug effect rating", "value": 22.5}
{"Structure (SMILES)": "C[C@H]1CNCCc2ccc(Cl)cc21", "test system": "male Sprague-Dawley rat, plasma", "conditions": "subcutaneous, 1 mg/kg, single dose", "quantity": "AUC(0-inf)", "value": "63.7 ng·h/mL"}
{"Structure (SMILES)": "C=C1C[C@@H]2[C@H](CC[C@]3(C)C(=O)CC[C@@H]23)[C@@]2(C)C=CC(=O)C=C12", "test": "LC-MS/MS", "test system": "postmenopausal breast cancer women, plasma", "conditions": "oral, 25 mg/day, 2 h, CYP3A4*22 carriers, outlier excluded", "quantity": "median plasma concentration", "value": "10.5 ng/mL"}
{"Structure (SMILES)": "CN1CC[C@@]23CCCC[C@@H]2[C@@H]1Cc1ccc(O)cc13", "test system": "Wistar rat, both sexes, plasma", "conditions": "oral, 5 mg/kg DEM, DEM 2 h after pretreatment, added: TCE 400 mg/kg single pretreatment", "quantity": "MRT(0-t)", "value": "3.23 ± 1.3 h"}
{"Structure (SMILES)": "[123I]c1cncc(OC[C@@H]2CCN2)c1", "test": "SPECT", "test system": "human, low plasma nicotine, Putamen", "conditions": "intravenous", "scale": "relative to: plasma", "quantity": "tissue/plasma ratio", "value": 23.8}
